Measurements gathered from unrelated publications.
Cell line: HL-60

SMILES	effect on	action	technique	time	with	IC50
COc1cc(/C=C/c2ccccc2)cc(OC)c1	ROS generation	inhibitor	DCFH-DA		PMA	> 25 µg/mL
O=C1c2cccc(O)c2C(=O)c2c(O)cc(CO)cc21	cell growth or viability		ATP luminescence	24 h		225 µM
Oc1cc(O)cc(/C=C/c2ccccc2)c1	ROS generation	inhibitor	DCFH-DA		PMA	> 25 µg/mL
Cc1cc(C)n(C(N)=S)n1.Cc1ccc(C(C)C)cc1.[Cl][Ru][Cl]	cell growth or viability		MTT	48 h		88.9 µM
Cc1cc(O)c2c(c1)C(=O)c1cc(O)cc(O)c1C2=O	cell growth or viability		ATP luminescence	24 h		5 µM
COc1ccc(/C=C/C(=O)/C=C2/C(=O)Nc3cc(Br)ccc32)cc1	cell viability		MTT	24 h		1.7 µM
O=c1c(O)c(-c2ccc(O)c(O)c2)oc2cc(O)cc(O)c12	cell growth or viability		ATP luminescence	24 h		8 µM
COc1cc(O)cc(/C=C/c2ccccc2)c1	ROS generation	inhibitor	DCFH-DA		PMA	> 25 µg/mL
CCCCNc1ncnc2c1sc1nc3ccccc3cc12	cell growth or viability		trypan blue	48 h		12 µM
Cc1ccc(C(C)C)cc1.Cc1ccc(C(C)C)cc1.[Cl][Ru][Cl].[Cl][Ru][Cl]	cell growth or viability		MTT	48 h		401 µM
C[C@@H]1CC2=C(CN1Cc1cccc(C#N)c1)C(=O)N(Cc1ccc(Br)cc1)C1=NCCN12	cell growth		MTS	72 h		0.0046 µM
COc1ccc(/C=C/C(/C=C2/C(=O)Nc3cc(Br)ccc32)=N\O)cc1	cell growth or viability		MTT	24 h		3.3 µM
C(=C\c1ccccc1)/c1ccccc1	cell growth or viability		ATP luminescence	24 h		135 µM
CC(C)/C=C/c1c(O)cc(/C=C/c2ccc(O)cc2)cc1O	reactive oxygen species	inhibitor	fluorescence			0.17 µg/mL

For quick reference, copied from above:
SMILES	effect on	action	technique	time	with	IC50
Cc1cc(O)c2c(c1)C(=O)c1cc(O)cc(O)c1C2=O	cell growth or viability		ATP luminescence	24 h		5 µM
COc1ccc(/C=C/C(=O)/C=C2/C(=O)Nc3cc(Br)ccc32)cc1	cell viability		MTT	24 h		1.7 µM
